Results of several laboratories.
Each numbered part is a random draw from the data of one study; scales do not carry over between parts. Changes are numbered by the printed parent chain.
Chain of UniProt P32298 (whole entry, looked up): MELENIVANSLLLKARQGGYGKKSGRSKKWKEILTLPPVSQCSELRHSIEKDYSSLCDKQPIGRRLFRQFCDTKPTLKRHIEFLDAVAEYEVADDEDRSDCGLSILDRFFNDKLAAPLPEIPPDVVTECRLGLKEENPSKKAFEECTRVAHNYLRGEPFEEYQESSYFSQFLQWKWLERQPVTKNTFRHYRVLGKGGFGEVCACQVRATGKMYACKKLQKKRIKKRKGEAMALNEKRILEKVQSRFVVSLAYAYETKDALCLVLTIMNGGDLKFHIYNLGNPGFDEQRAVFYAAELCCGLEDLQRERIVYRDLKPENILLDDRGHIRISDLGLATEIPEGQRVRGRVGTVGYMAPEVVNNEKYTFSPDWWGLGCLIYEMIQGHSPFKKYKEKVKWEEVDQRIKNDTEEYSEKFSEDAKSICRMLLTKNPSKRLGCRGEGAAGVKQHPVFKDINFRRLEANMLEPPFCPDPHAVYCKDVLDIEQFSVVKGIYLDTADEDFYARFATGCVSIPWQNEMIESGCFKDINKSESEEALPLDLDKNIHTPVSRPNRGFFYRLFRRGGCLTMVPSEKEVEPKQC

Series 1 — technique: RNA Bind-n-Seq; form: RNA; matrix: in vitro; concentration: 20 nM; notes: 6-mer, flanks averaged, single round; added: 150 mM LiCl; reference: input library; reading: higher = stronger binding
Target: TAR DNA-binding protein 43, full length, His tag (TARDBP, Homo sapiens, UniProt Q13148, residues 1-414)
Oligonucleotide	6-mer enrichment (R)
GCACAA	0.91
CCUGGG	0.991
UUAGCC	0.969
CCUGCA	0.914
CCGGGA	0.964
CUGGGC	0.972
CGCCUU	0.991
GACCCG	0.954

Series 2 — technique: aptamer microarray, sandwich; form: DNA with 2'F-ANA; matrix: in vitro; concentration: 200 nM; added: Cy3 exosite-II aptamer, 400 nM; reading: higher = stronger binding; oligonucleotide: GGTTGGTGTGGTTGG
Target: Prothrombin, mature alpha-thrombin (F2, Homo sapiens, UniProt P00734)
Notes: whole 15-mer aptamer, many near background
Modification	mean fluorescence intensity [a.u.]
2'F-ANA at 1 2 4 6 7 8 9 11 12 13 14	52.2
2'F-ANA at 3 4 9 10 11	246
2'F-ANA at 4 5 6 7 9 11 12 13 14 15	54.5
2'F-ANA at 3 4 5 6 7 8 9 13 14	51.7
2'F-ANA at 4 7 8 9 11 13	221
2'F-ANA at 1 3 6 8 9 10 12 14 15	66.5
2'F-ANA at 2 11 13	340
2'F-ANA at 1 4 5 7 10 12 14	44

Series 3 — technique: DHFR PCA, dose-response; matrix: yeast; notes: Hill fit, mean, not affinity; added: (+)-ABA, dose series; reading: lower = more sensitive
Target: ABI1, truncated, D143A, DHFR fusion (Arabidopsis thaliana, UniProt P49597)
Starting sequence: PYL1, truncated, DHFR fusion (Arabidopsis thaliana, UniProt Q8VZS8); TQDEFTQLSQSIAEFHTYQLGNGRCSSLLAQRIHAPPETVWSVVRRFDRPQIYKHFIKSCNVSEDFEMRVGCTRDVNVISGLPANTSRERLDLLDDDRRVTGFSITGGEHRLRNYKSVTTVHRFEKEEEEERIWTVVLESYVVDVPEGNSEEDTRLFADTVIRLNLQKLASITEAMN
Change	ABA EC50 [µM]
N165D	313
L29H	4.26
R113Y	9.97
V136Y	4.76
E152N	3.45
E64I	7.48
D144W	336
G71W	482

Mixed results
SMILES	target	read-out	technique	concentration	measurement	value
CO[C@H]1CC[C@H](CNc2ccc(S(=O)(=O)NC(=O)c3ccc(N4CCN(CC5=C(c6ccc(Cl)cc6)CC(C)(C)CC5)CC4)cc3Oc3cnc4[nH]ccc4c3)cc2[N+](=O)[O-])CC1	G protein-coupled receptor kinase 4 (GRK4, Homo sapiens, UniProt P32298)	cell-free assay	competition with immobilised ligand	1 µM	remaining binding	100%
